Measurements of several laboratories.
Compare with care: the assays were run in different laboratories. Values joined by “and” are separate records of one study, mostly repeats; a detail may differ. ± gives the spread as reported.
Lysophospholipase-like protein 1: Lysophospholipase-like protein 1 (Mus musculus, UniProt Q3UFF7)
E3 ubiquitin-protein ligase NEDD4: E3 ubiquitin-protein ligase NEDD4 (Homo sapiens, UniProt P46934)
GLP1R: Glucagon-like peptide 1 receptor (GLP1R, Homo sapiens, UniProt P43220)
RPA1 N-terminal domain: Replication protein A 70 kDa DNA-binding subunit, N-terminal domain (RPA1, Homo sapiens, UniProt P27694)
Grm2: Metabotropic glutamate receptor 2 (Grm2, Rattus norvegicus, UniProt P31421)

Chains of the proteins cited; added tags and fusions are not shown. Residues count along the entry.
UniProt Q3UFF7, whole entry: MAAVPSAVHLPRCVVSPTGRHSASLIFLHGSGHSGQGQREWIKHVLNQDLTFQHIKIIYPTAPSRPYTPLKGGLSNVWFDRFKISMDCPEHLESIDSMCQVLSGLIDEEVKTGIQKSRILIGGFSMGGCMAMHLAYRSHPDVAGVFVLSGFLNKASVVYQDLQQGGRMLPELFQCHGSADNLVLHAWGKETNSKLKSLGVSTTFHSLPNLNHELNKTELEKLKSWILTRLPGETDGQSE
UniProt P46934, whole entry, looked up: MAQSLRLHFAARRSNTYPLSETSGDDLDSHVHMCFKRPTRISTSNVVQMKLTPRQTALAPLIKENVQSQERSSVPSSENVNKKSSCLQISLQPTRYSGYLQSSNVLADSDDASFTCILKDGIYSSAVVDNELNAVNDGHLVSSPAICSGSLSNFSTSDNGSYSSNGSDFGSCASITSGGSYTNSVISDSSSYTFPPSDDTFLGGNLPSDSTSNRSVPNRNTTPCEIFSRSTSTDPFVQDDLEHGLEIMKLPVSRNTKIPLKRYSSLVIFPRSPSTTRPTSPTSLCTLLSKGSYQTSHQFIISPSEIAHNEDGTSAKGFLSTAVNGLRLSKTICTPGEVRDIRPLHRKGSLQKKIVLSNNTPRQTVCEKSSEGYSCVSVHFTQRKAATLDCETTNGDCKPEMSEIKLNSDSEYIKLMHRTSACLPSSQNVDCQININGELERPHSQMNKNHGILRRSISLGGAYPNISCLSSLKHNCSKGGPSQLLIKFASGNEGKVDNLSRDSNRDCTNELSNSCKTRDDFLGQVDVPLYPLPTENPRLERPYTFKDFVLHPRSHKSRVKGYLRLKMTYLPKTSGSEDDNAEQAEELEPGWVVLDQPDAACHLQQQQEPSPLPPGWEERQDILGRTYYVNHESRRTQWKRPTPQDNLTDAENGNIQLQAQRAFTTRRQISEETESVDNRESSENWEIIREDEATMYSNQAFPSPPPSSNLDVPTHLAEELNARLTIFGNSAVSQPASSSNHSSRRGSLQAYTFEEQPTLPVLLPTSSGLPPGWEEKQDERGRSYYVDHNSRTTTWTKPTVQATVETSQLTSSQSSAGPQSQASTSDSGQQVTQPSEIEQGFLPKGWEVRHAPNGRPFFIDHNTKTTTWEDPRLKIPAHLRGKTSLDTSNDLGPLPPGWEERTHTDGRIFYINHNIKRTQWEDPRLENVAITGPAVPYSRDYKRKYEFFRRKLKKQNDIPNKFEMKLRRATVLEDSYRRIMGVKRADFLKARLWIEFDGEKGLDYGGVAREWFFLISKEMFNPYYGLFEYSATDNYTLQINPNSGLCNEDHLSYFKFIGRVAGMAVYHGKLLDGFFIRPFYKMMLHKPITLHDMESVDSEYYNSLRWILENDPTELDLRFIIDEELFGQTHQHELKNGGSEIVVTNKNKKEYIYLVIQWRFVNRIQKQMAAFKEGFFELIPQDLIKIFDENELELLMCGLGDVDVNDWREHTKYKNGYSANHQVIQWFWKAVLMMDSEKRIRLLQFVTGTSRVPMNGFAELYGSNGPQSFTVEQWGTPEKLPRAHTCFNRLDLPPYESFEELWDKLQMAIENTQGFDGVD
UniProt P05067, 672-713 limits assumed: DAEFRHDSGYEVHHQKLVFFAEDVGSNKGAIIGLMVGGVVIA
UniProt Q8IUN9, whole entry, looked up: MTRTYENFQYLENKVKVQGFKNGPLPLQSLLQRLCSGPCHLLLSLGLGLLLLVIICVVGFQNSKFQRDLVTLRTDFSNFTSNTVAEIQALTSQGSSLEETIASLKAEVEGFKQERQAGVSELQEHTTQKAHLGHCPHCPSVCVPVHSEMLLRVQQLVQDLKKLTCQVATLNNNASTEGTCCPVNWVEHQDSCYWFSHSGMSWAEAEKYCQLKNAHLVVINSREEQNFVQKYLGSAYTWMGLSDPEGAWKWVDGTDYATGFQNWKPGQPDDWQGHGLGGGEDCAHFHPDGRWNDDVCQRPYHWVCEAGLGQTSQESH
UniProt P29466, whole entry, looked up: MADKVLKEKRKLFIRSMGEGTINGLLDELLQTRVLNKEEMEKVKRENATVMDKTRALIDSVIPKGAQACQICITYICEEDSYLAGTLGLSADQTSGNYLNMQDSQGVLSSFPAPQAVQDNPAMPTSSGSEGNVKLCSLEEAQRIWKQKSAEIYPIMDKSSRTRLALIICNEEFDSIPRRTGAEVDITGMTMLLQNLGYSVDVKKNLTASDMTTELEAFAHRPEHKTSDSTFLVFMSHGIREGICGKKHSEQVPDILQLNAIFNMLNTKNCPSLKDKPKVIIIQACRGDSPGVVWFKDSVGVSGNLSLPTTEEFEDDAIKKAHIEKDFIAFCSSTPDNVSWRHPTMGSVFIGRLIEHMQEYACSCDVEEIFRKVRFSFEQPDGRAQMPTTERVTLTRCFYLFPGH
UniProt P45983, 1-384 isoform 3 C116S: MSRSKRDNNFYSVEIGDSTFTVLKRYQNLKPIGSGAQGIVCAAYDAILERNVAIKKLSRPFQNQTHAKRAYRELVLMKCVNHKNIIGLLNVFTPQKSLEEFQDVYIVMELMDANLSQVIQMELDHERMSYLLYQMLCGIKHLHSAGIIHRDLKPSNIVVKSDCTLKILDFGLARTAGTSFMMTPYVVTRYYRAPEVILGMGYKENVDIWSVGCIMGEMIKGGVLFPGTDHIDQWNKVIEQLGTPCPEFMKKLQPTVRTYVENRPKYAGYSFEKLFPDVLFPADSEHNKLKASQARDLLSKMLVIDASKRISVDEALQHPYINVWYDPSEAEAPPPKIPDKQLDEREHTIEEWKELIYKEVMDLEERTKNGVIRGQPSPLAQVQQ
UniProt Q06187, whole entry: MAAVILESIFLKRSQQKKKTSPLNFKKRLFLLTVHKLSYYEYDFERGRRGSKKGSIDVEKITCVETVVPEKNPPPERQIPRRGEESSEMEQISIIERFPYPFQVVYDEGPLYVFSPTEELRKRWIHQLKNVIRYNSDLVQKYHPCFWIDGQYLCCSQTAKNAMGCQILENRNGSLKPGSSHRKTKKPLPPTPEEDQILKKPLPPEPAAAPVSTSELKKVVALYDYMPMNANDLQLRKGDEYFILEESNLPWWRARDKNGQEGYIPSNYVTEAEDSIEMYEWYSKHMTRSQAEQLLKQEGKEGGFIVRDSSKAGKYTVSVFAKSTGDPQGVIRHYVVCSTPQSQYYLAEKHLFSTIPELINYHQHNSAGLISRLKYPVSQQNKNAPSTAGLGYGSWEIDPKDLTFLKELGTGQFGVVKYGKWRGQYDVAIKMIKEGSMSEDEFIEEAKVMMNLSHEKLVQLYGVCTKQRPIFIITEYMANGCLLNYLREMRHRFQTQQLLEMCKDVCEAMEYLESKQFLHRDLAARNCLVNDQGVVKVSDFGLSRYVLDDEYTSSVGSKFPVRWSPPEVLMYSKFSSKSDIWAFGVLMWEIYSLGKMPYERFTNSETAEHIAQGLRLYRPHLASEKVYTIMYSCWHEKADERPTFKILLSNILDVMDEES
UniProt Q99K82, whole entry: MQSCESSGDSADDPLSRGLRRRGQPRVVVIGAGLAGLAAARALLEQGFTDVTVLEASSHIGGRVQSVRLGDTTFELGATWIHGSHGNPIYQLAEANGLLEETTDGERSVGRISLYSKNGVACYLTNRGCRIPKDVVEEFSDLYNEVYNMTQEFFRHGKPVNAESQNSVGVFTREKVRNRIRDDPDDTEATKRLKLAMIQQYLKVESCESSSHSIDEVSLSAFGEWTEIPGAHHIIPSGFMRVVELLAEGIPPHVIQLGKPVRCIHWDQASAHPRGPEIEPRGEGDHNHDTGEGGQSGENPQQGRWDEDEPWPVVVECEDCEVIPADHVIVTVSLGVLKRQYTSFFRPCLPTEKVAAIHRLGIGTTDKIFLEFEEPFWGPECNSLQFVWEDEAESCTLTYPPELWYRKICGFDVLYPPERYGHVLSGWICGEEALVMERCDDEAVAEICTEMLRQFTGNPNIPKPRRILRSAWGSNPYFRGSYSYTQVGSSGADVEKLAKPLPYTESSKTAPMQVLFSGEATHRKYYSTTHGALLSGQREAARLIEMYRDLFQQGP
UniProt O60502, whole entry: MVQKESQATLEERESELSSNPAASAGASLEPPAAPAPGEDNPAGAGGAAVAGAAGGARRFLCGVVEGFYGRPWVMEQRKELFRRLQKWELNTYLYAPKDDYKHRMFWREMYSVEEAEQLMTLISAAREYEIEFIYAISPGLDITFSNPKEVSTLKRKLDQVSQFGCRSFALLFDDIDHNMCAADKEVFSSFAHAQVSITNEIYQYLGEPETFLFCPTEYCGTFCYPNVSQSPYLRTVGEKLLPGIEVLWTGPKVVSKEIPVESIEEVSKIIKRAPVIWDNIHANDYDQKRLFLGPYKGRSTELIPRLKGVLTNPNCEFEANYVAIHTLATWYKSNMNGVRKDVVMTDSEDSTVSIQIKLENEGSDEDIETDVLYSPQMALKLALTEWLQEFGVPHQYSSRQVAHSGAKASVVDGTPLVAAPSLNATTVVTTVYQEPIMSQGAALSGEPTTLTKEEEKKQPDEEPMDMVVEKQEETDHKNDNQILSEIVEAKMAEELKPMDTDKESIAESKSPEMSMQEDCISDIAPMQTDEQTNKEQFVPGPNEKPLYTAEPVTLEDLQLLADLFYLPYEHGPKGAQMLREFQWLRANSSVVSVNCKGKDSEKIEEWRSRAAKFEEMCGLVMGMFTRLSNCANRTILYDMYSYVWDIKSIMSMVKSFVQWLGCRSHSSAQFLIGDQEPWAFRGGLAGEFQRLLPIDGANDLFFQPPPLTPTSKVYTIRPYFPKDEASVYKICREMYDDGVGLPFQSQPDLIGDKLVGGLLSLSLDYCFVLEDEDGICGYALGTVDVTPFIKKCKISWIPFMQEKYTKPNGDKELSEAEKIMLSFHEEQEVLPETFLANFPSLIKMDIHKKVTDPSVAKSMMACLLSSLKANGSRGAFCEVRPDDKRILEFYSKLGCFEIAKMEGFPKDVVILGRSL
UniProt P31423, 33-912 limits assumed: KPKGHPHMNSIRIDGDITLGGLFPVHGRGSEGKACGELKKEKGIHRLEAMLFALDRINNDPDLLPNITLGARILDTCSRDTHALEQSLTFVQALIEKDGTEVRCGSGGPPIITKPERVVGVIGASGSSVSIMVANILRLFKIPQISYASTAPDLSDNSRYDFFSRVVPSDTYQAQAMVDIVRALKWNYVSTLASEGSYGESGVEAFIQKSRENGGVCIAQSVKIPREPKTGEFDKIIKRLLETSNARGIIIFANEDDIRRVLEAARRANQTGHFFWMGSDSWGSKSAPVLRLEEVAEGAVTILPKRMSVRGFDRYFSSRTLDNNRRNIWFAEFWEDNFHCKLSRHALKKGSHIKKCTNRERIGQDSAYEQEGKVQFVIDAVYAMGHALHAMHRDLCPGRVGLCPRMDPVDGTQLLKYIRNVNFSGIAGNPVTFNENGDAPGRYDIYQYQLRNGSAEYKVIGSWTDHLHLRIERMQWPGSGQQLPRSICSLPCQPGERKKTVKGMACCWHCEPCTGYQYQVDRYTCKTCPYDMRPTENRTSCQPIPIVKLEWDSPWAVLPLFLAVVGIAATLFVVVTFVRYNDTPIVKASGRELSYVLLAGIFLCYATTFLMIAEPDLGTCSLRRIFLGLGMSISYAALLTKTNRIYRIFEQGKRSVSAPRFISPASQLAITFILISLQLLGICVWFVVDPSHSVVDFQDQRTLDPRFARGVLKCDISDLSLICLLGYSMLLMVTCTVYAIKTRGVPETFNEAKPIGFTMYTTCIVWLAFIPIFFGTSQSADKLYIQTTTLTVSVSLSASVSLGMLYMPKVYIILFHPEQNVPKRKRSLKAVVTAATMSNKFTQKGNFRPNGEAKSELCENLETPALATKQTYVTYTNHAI
UniProt P22455, 467-755 V550E limits assumed: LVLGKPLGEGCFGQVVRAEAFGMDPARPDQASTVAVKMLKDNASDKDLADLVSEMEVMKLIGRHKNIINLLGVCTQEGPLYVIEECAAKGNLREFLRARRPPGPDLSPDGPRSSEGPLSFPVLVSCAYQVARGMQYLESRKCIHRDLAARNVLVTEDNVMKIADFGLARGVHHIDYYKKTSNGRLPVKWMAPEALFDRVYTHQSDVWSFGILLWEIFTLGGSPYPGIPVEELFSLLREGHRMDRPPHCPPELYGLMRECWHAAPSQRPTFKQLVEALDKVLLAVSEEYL
UniProt P11473, whole entry: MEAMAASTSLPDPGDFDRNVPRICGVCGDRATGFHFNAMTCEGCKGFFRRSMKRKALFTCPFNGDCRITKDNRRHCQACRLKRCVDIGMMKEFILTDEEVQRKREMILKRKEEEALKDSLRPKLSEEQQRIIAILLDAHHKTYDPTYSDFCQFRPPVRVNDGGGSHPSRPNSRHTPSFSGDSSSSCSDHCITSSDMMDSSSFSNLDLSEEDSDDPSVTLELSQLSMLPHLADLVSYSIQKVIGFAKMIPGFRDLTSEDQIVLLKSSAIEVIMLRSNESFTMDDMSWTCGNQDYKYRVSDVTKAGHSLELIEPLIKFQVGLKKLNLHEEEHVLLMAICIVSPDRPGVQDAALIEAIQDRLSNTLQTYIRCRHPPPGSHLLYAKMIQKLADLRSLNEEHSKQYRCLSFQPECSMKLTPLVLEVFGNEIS

COCCOCCOCCOC(=O)C(C#N)=Cc1ccc(N(C)C)cc1OC has a fluorescence intensity of 1.3 fold (Amyloid-beta precursor protein, aggregated Aβ42 (APP, Homo sapiens, UniProt P05067); fluorescence after Aβ binding, fluorescence spectroscopy; PBS; 4 µM, with: aggregated Aβ(1-42) 5 µM; relative to: before mixing with Aβ).
Cc1nc2ccc(S(=O)(=O)n3nc(CCc4ccc(Cl)cc4)nc3N)cc2o1 gave a probe labelling of 1.6 fold (Lysophospholipase-like protein 1; activator, gel-based ABPP FP-rhodamine; relative to: DMSO).
With CC(=O)N[C@H]1[C@@H](O[C@H](C)[C@H](N)C(=O)O)O[C@H](CO)[C@H](O)[C@@H]1O the binding stoichiometry was 1.3 ± 0.2 (CLEC10A, carbohydrate recognition domain (Homo sapiens, UniProt Q8IUN9); ITC; concentration not given, 293 K).
For O=C(CN1C(=O)C=CC1=O)N1CCN(c2cc(N3CCCC3)nc(N3CCCC3)n2)CC1, “recovered enzyme activity” read 50 to 65% (Caspase-1 (CASP1, Homo sapiens, UniProt P29466); DTT reversibility; concentration not given, with: 10 mM DTT).
The kcat/Km of CC(=O)N[C@@H](CC(C)C)C(=O)N[C@@H](CCCNC(=N)N)C(=O)N[C@@H](CO)C(=O)N[C@@H](CCCNC(=N)N)C(=O)Nc1ccc2c(C(F)(F)F)cc(=O)oc2c1 is reported as 2500 M⁻¹ s⁻¹ (MALT1 (Homo sapiens, UniProt Q9UDY8); substrate, fluorogenic peptide hydrolysis; pH 7.5, enzyme 399 nM, citrate 0.9 M).
Under “ubiquitination TR-FRET signal AUC”, CCOC(=O)/C=C/CNCCCN1c2ccccc2CCc2ccc([N+](=O)[O-])cc21 is recorded as 132000 a.u. and 128000 a.u. and 131000 a.u. (E3 ubiquitin-protein ligase NEDD4; inhibitor, Ub-TR-FRET; 1.235 µM, 1 h preincubation, HECT domain, with: ATP 2 mM; higher = more ubiquitination).
Under “onset time of degradation”, CN1CCN(c2ccc(-c3cccc(CN4CCN(CCNC(=O)CCCCCCCNc5cccc6c5C(=O)N(C5CCC(=O)NC5=O)C6=O)CC4)c3)cc2NC(=O)c2c[nH]c(=O)cc2C(F)(F)F)CC1 (stereo not drawn) is recorded as no more than 2 h (WDR5 (Homo sapiens, UniProt P61964); degrader, immunoblot, measured: WDR5 protein level; MV4;11; 0.5 µM).
The maximal response of N#Cc1cnc(Nc2nc3ccccc3o2)nc1-c1ccc(Cl)cc1Cl is reported as 3 ± 0.4% (Grm5 (Rattus norvegicus, UniProt P31424); calcium mobilization, negative allosteric modulator; with: glutamate EC80; relative to: glutamate maximum).
The kon of COC(=O)C1(C)C=C(C(=O)Nc2cccc(C(=O)Nc3ccc(Nc4nccc(-c5cccnc5)n4)c(C)c3)c2)C(=O)C1 (stereo not drawn) is reported as 250000 M⁻¹ s⁻¹ (MAPK8 (Homo sapiens, UniProt P45983, C116S); surface plasmon resonance; 100, 300, 1000 nM, 1:1 binding model).
For Cc1[nH]c2cc(Cl)cc(Cl)c2c1CCn1cc(CNC(N)=O)nn1, the Emax was 85.6% (GLP1R; cAMP accumulation, positive allosteric modulator, HTRF; 0.6 µM, crude reaction product, with: GLP-1(9-36) at EC20; relative to: BETP).
COC(=O)[C@@]1(C)C=C(C(=O)Nc2cccc(C(=O)NC34CC(Nc5nccc(-c6cccnc6)n5)(C3)C4)c2)C(=O)CC1 gave a remaining activity of 0.875 fraction of control (MAPK10 (Homo sapiens, UniProt P53779); enzyme activity, inhibitor; 0.006774 µM).
Cc1ccc(C(=O)Nc2cc(F)ccc2C(=O)O)cc1S(=O)(=O)Nc1ccc(Cl)c(Cl)c1 has a ligand efficiency of 0.22 (RPA1 N-terminal domain; binding, fluorescence polarisation competition; with: FITC-ATRIP probe).
For CCOC(=O)/C=C/CNCCCCN1c2ccccc2CCc2ccc(Cl)cc21, “ubiquitination TR-FRET signal AUC” read 48900 a.u. (E3 ubiquitin-protein ligase NEDD4; inhibitor, Ub-TR-FRET; 33.33 µM, 1 h preincubation, HECT domain, DMSO up to 2%, with: ATP 2 mM; higher = more ubiquitination).
CC(C)C[C@H](NC(=O)[C@@H]1CCCN1C(=O)[C@H](CCC(N)=O)NC(=O)c1ccccc1N)C(=O)N[C@@H](CCC(N)=O)C(=O)N[C@@H](CC(N)=O)C(=O)N[C@@H](CCCCN)C(=O)N[C@H](C(=O)N[C@@H](CCC(N)=O)C(=O)NCCNc1ccc([N+](=O)[O-])cc1[N+](=O)[O-])C(C)C has a kcat/Km of 21000 M⁻¹ s⁻¹ (Mitochondrial intermediate peptidase (MIPEP, Homo sapiens, UniProt Q99797); substrate, FRET peptide hydrolysis).
For CC(C)(C)c1ccnc(NC(=O)c2ccc(-c3nn([C@@H]4CCCN(C(=O)C5CC5)C4)c4ncnc(N)c34)cc2)c1, the residence time was 2.4 ± 0.3 min (Tyrosine-protein kinase BTK, non-phosphorylated (BTK, Homo sapiens, UniProt Q06187); TR-FRET binding kinetics; 37 °C, unphosphorylated enzyme).
CC(=O)NCCCC[C@H](NC(C)=O)C(=O)Nc1ccc2c(C)cc(=O)oc2c1 gave a kcat of 0.07 ± 0.02 s⁻¹ (HDAC8 (Homo sapiens, UniProt Q9BY41); deacetylation, substrate; 25 °C, with: 150 nM enzyme).
O=C(/C=C/c1ccc(O)c(OC(F)(F)F)c1)C(CCCOC1CCCCO1)C(=O)/C=C/c1ccc(O)c(OC(F)(F)F)c1 (stereo not drawn): “Aβ band density” 2440 ± 376% (APP (Homo sapiens, UniProt P05067); SDS-PAGE western blot, measured: Aβ1-42 species 75-200 kDa; 30 µM, 24 h, 37 °C, with: Aβ 10 µM; relative to: DMSO control).
The probe labelling of Nc1nc(NCCc2ccc(Cl)cc2)nn1S(=O)(=O)c1cccc([N+](=O)[O-])c1 is reported as 2 fold (Lysophospholipase-like protein 1; activator, gel-based ABPP FP-rhodamine; relative to: DMSO).
The remaining activity of COc1ccc(Nc2c(C(=O)O)ccnc2C(=O)O)cc1 is reported as 78% (fdhA (Pseudomonas putida, UniProt P46154); inhibitor, spectrophotometric; 200 µM, counterscreen).
CCc1ccc(NS(=O)(=O)c2cc(C(=O)Nc3ccccc3C(=O)O)ccc2C)cc1 has a ligand efficiency of 0.18 (RPA1 N-terminal domain; binding, fluorescence polarisation competition; with: FITC-ATRIP probe).
With NCCCNCCCCNCCCNCc1ccccn1 the relative Vmax was 0.108 (Smox (Mus musculus, UniProt Q99K82); substrate; relative to: spermine).
Under “ubiquitination TR-FRET signal AUC”, CCOC(=O)/C=C/CNCCCCCN1c2ccccc2CCc2ccc(Cl)cc21 is recorded as 29800 a.u. and 17600 a.u. and 19900 a.u. and 17800 a.u. and 21400 a.u. and 18200 a.u. (E3 ubiquitin-protein ligase NEDD4; inhibitor, Ub-TR-FRET; 33.33 µM, 1 h preincubation, HECT domain, with: ATP 2 mM; higher = more ubiquitination).
CC(=O)Nc1ncc(CN2CC[C@H](Oc3cccc(F)n3)C[C@@H]2C)s1 [isotope labelled] has a binding of 3 nCi/mg (Protein O-GlcNAcase (OGA, Homo sapiens, UniProt O60502); autoradiography; human cerebellum sections; 5 nM, radiolabelled compound).
The specific binding of O=C(O)c1cc(C(=O)N[C@@H](Cc2c[nH]c3ccccc23)C(=O)O)cc([C@H]2CCN[C@@H]2C(=O)O)c1 is reported as 72 ± 3% (Glutamate receptor ionotropic, kainate 1 (Rattus norvegicus, UniProt P22756); radioligand binding; Sf9 membranes; 10 µM, homomeric receptor, with: [3H]SYM2081).
With Cc1nc(-c2ccc(OCC(C)C)c(C#N)c2)sc1C(N)=O the efficacy was 51.3 ± 4% (Grm4 (Rattus norvegicus, UniProt P31423); thallium flux; HEK293 GIRK; relative to: glutamate max).
CC(C)(Cn1cc(CCC(=O)Nc2ccccc2)nn1)c1c[nH]c2ccccc12 gave an Emax of 109 ± 2% (GLP1R; cAMP accumulation, positive allosteric modulator, HTRF; 0.6 µM, purified compound, with: GLP-1(9-36) at EC20; relative to: BETP).
COc1ccc(S(=O)(=O)n2nc(SCc3ccc(Cl)cc3)nc2N)cn1 gave a probe labelling of 2 fold (Lysophospholipase-like protein 1; activator, gel-based ABPP FP-rhodamine; relative to: DMSO).
For CCC1NC(=O)C(CCCNC(=N)N)NC(=O)C(C)(NC(=O)C(C)C)CCCCNC(=O)C(c2ccccc2)NC1=O (stereo not drawn), MLL4-RbBP5 binding read “no effect” (WD repeat-containing protein 5, with MLL4, RbBP5 (WDR5, Homo sapiens, UniProt P61964); Ni-NTA pull-down; HeLa nuclear extract; up to 25 µM, with: 10 µM His-MLL4).
The ligand efficiency of Cc1ccc(NS(=O)(=O)c2cc(C(=O)Nc3ccccc3C(=O)O)ccc2C)cc1C is reported as 0.17 (RPA1 N-terminal domain; binding, fluorescence polarisation competition; with: FITC-ATRIP probe).
With NC(=O)c1cn(-c2ccc(F)cc2)c2ccc(CCc3cccnc3)cc2c1=O the response was 1.9 ± 0.11% (Grm2; calcium mobilization, negative allosteric modulator; 30 µM, with: glutamate 100 µM; relative to: glutamate maximum).
For Nc1nc(NCc2ccc(Cl)cc2)nn1S(=O)(=O)c1ccc2ncsc2c1, the probe labelling was 1 fold (Lysophospholipase-like protein 1; activator, gel-based ABPP FP-rhodamine; relative to: DMSO).
CC(=O)N1CCN(c2ccc(Nc3ncc4c(n3)N(C)C(=O)N(c3cc(NC(=O)c5ccc(CN6CCC(N(C)C)C6)c(C(F)(F)F)c5)ccc3C)C4)cn2)CC1 (stereo not drawn): “potency fold increase” 21 fold (FGFR4/Transcription factor ETV6 (Homo sapiens, UniProt P22455+P41212, V550E); cell proliferation; Ba/F3 TEL-FGFR4 V550E; relative to: GNF-7 GI50 over compound GI50).
Cc1cc(SCc2sc(-c3ccncc3)nc2C)ccc1OCC(=O)O — result for IC50: “inactive” (Vitamin D3 receptor (VDR, Homo sapiens, UniProt P11473); reporter gene, antagonist; HEK-293T; up to 100 µM, CYP24A1 promoter luciferase, with: 1,25(OH)2D3 10 nM).
COc1ccc(NC(=O)CN2CCCN(S(=O)(=O)c3ccccc3)CC2)c(OC)c1 has a maximal response of 69.7% (GRM4 (Homo sapiens, UniProt Q14833); calcium mobilization, positive allosteric modulator; CHO cells with Gqi5; with: glutamate; relative to: PHCCC maximal response).
For C[C@H](Nc1nc(N[C@@H](C)C2CC2)nc(-c2cccc(C(F)(F)F)n2)n1)C1CC1, the maximal inhibition was 91% (Isocitrate dehydrogenase [NADP] cytoplasmic, homodimer (IDH1, Homo sapiens, UniProt O75874, R132H); enzyme activity, inhibitor, diaphorase/resazurin coupled).
The response of Cc1ncc(COc2ccc3c(c2)c(=O)c(C(N)=O)cn3-c2ccc(F)cc2)cn1 is reported as 1.3 ± 0.58% (Grm2; calcium mobilization, negative allosteric modulator; 30 µM, with: glutamate 100 µM; relative to: glutamate maximum).

For quick reference, copied from above:
The specific binding of O=C(O)c1cc(C(=O)N[C@@H](Cc2c[nH]c3ccccc23)C(=O)O)cc([C@H]2CCN[C@@H]2C(=O)O)c1 is reported as 72 ± 3% (Glutamate receptor ionotropic, kainate 1 (Rattus norvegicus, UniProt P22756); radioligand binding; Sf9 membranes; 10 µM, homomeric receptor, with: [3H]SYM2081).
With Cc1nc(-c2ccc(OCC(C)C)c(C#N)c2)sc1C(N)=O the efficacy was 51.3 ± 4% (Grm4 (Rattus norvegicus, UniProt P31423); thallium flux; HEK293 GIRK; relative to: glutamate max).
CC(C)(Cn1cc(CCC(=O)Nc2ccccc2)nn1)c1c[nH]c2ccccc12 gave an Emax of 109 ± 2% (GLP1R; cAMP accumulation, positive allosteric modulator, HTRF; 0.6 µM, purified compound, with: GLP-1(9-36) at EC20; relative to: BETP).
COc1ccc(S(=O)(=O)n2nc(SCc3ccc(Cl)cc3)nc2N)cn1 gave a probe labelling of 2 fold (Lysophospholipase-like protein 1; activator, gel-based ABPP FP-rhodamine; relative to: DMSO).
